Results from different studies.
Each numbered part is a random draw from the data of one study; scales do not carry over between parts. Substitutions count along the parent as printed.
Chain of UniProt Q96PN8 (whole entry, looked up): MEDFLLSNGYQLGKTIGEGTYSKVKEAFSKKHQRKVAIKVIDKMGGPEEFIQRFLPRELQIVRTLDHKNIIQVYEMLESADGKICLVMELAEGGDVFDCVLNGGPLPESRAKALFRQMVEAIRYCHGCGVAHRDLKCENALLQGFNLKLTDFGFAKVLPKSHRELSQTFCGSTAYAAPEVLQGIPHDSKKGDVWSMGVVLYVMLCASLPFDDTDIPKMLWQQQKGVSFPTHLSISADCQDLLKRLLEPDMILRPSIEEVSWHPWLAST
Chain of UniProt Q9UKE5 (whole entry, looked up): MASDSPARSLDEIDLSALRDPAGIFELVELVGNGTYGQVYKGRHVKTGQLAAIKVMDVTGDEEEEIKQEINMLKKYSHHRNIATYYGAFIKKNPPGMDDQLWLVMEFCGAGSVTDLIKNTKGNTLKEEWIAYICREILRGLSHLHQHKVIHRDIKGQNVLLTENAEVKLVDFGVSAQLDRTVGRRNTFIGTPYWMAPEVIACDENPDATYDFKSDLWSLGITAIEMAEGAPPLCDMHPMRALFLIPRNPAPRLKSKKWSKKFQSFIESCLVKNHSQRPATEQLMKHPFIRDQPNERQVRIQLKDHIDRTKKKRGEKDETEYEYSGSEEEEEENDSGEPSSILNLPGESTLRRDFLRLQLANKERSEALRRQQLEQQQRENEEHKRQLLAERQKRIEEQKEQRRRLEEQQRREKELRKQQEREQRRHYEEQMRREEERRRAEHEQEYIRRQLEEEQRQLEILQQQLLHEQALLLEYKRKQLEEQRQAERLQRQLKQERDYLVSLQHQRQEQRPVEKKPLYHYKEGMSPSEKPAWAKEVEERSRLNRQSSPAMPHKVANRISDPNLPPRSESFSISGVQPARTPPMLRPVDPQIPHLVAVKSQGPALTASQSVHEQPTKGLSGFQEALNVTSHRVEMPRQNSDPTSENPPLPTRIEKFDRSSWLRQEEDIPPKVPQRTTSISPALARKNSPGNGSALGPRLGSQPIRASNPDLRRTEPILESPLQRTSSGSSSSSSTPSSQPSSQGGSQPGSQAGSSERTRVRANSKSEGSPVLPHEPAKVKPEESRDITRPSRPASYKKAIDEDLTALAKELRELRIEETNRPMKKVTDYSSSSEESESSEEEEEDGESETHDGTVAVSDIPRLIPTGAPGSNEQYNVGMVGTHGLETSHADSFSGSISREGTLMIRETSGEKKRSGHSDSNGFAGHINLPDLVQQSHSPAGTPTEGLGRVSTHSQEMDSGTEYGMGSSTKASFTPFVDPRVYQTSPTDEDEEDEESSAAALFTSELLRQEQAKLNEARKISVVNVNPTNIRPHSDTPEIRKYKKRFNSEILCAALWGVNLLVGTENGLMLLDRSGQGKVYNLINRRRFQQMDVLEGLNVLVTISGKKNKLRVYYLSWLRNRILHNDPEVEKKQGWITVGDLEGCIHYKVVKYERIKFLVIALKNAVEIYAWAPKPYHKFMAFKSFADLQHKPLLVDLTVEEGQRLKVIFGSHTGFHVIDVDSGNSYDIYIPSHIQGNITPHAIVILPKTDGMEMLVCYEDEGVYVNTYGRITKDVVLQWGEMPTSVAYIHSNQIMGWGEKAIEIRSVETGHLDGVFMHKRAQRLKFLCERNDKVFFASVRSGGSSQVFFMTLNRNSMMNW
Chain of UniProt O94804 (whole entry, looked up): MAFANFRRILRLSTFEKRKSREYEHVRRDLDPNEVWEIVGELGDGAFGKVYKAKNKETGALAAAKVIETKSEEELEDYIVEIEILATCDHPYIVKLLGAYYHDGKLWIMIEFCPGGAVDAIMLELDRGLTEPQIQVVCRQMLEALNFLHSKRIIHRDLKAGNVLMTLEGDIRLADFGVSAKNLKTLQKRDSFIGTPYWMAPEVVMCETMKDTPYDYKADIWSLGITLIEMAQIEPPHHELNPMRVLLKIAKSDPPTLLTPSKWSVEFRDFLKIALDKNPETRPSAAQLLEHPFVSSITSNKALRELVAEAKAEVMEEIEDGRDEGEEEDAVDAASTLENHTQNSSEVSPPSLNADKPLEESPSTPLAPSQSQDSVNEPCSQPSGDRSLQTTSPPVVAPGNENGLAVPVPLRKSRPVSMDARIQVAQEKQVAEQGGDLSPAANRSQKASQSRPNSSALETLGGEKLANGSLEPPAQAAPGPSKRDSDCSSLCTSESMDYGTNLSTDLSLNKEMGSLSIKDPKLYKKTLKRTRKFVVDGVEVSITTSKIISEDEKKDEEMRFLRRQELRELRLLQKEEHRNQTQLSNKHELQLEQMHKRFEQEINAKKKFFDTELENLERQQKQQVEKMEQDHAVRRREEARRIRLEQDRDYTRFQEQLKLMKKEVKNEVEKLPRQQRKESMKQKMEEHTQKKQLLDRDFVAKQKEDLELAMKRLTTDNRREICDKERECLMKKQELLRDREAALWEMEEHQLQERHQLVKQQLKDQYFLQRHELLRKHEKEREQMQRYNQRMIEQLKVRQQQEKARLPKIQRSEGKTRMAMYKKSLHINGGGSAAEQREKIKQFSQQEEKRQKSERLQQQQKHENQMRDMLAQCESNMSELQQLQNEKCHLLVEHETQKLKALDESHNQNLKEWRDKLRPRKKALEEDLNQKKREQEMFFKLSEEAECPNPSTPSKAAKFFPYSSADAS
Chain of UniProt P57058 (whole entry, looked up): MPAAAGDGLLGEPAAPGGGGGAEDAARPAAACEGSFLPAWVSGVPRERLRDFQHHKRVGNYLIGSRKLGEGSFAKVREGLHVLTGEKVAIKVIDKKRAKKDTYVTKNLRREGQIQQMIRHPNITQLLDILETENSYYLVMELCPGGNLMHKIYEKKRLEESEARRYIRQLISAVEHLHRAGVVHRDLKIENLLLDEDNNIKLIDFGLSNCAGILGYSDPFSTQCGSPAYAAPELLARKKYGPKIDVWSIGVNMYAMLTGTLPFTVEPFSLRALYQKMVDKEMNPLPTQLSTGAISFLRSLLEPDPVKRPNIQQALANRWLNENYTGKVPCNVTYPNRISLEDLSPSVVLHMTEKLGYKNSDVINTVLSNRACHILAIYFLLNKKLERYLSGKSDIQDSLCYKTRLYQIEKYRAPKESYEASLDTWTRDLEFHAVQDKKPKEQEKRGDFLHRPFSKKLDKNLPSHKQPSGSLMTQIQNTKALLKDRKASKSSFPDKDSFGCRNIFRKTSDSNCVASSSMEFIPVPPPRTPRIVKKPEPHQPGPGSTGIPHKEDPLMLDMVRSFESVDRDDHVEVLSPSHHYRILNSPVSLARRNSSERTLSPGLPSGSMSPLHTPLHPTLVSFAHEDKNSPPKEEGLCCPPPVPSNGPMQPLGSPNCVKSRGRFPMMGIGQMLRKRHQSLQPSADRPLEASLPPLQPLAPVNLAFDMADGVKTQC
Chain of UniProt P09619 (whole entry, looked up): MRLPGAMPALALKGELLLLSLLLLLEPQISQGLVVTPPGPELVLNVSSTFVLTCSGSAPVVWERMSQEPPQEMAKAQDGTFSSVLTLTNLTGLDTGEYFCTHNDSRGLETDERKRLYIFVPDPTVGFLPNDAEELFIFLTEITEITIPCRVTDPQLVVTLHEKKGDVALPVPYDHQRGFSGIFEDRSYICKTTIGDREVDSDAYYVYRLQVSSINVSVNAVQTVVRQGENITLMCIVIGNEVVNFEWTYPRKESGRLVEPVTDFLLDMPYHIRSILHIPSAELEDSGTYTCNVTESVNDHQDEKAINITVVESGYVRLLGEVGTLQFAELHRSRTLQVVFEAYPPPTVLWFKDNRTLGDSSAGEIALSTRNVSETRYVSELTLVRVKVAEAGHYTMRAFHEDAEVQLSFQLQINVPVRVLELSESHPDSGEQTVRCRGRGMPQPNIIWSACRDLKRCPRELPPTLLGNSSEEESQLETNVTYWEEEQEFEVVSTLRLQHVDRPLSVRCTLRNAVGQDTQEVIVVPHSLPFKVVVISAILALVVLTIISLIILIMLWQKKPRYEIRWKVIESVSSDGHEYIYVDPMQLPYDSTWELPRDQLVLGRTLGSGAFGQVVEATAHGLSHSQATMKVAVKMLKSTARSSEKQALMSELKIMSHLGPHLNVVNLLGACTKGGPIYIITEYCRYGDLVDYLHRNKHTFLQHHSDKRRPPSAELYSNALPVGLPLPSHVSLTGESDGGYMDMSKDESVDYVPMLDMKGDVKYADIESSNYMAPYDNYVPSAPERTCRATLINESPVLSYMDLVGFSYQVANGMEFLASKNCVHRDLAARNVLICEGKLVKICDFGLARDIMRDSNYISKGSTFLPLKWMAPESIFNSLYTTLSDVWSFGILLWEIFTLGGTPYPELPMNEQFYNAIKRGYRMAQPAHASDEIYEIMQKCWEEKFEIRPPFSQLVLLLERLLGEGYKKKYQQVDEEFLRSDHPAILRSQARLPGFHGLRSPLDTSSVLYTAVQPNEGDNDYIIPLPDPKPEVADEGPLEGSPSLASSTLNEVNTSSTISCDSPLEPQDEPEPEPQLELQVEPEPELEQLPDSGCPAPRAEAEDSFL

Set 1
Structure (SMILES): CS(=O)(=O)N1CCCC(NC(=O)[C@H](CCC2CCCCC2)NC(=O)c2ccc(CNC(=O)c3cnc4ccccn34)cc2)C1 (stereo partly shown)
Concentration: 0.1 µM
CHUK (Homo sapiens, UniProt O15111); cell-free assay, competition with immobilised ligand — remaining binding: 100%.
EPHB1 (Homo sapiens, UniProt P54762); cell-free assay, competition with immobilised ligand — remaining binding: 89%.
It gave 100% for remaining binding (PDGFRB (Homo sapiens, UniProt P09619); cell-free assay, competition with immobilised ligand).
For MARK4 (Homo sapiens, UniProt Q96L34); cell-free assay, competition with immobilised ligand: remaining binding read 100%.
TNIK (Homo sapiens, UniProt Q9UKE5); cell-free assay, competition with immobilised ligand — remaining binding: 100%.
It gave 92% for remaining binding (AAK1 (Homo sapiens, UniProt Q2M2I8); binding).
For PIK3CA (Homo sapiens, UniProt P42336, E545A); cell-free assay, competition with immobilised ligand: remaining binding read 99%.
The remaining binding was 100% (STK10 (Homo sapiens, UniProt O94804); cell-free assay, competition with immobilised ligand).
The remaining binding was 100% (HUNK (Homo sapiens, UniProt P57058); cell-free assay, competition with immobilised ligand).
It gave 85% for remaining binding (WNK3 (Homo sapiens, UniProt Q9BYP7); cell-free assay, competition with immobilised ligand).
For TSSK3 (Homo sapiens, UniProt Q96PN8); cell-free assay, competition with immobilised ligand: remaining binding read 93%.

Set 2
Target: Serine/threonine-protein kinase 3 (STK3, Homo sapiens, UniProt Q13188)
Read-out: enzyme activity
Action: inhibitor
Concentration: 0.5 µM
Reference: control
Target sequence (Q13188 1-491): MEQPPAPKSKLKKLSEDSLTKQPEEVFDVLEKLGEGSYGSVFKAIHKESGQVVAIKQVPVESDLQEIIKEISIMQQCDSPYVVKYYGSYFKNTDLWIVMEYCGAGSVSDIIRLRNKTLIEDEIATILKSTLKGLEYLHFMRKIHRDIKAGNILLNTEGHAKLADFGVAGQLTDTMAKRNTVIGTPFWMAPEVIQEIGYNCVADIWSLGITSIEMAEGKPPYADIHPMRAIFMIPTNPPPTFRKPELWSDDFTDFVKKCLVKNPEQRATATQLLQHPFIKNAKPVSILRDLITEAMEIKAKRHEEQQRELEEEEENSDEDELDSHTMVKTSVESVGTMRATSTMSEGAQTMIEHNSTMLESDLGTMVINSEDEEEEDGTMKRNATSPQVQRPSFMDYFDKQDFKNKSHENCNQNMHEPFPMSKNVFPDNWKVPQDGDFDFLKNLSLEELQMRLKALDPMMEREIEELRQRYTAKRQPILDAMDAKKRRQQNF
With `COc1ccc2c(c1)c(C1=C(c3c[nH]c4ccccc34)C(=O)NC1=O)cn2CCCN(C)C` the remaining activity was 72.2%.
With `O=C1NC(=O)c2c1c1c3ccccc3[nH]c1c1[nH]c3cc(Br)ccc3c21` the remaining activity was 55.8%.
With `Cc1cc(Nc2cc(N3CCN(C)CC3)nc(Sc3ccc(NC(=O)C4CC4)cc3)n2)[nH]n1` the remaining activity was 80.2%.
`Cc1ccc(S(=O)(=O)/C=C/C#N)cc1` gave a remaining activity of 93.6%.

Set 3
Target: Interferon regulatory factor 5, full length, phosphomimetic (IRF5, Homo sapiens, UniProt Q13568-2, residues 1-514, K96S/S451D/S453D/S456D/S462D)
Technique: protein-binding microarray
Molecule type: double-stranded DNA, one strand shown
Matrix: in vitro
Concentration: 250 nM
Notes: 60-bp whole probe
With: salmon DNA 0.4 mg/ml
Reference: random background probes
Reading: higher = stronger binding
Constant ends, left off below: GCCTAGCAC … GTCTTGATTCGCTTGACGCTGCTG
For `CTCTCTTTCCAACTCTGTTTGTGCTAG`, the log fluorescence was 0.783 z-score.
The log fluorescence of `GACGATTTCAGTTCCCAGACGTGCTAG` is reported as 0.997 z-score.
`GACGAACTGAGACTGGAGGCGTGCTAG` has a log fluorescence of -0.368 z-score.
For `GACGATATCAGACTGGACACGTGCTAG`, the log fluorescence was 0.567 z-score.
With `TTGATAATTTTTTTCTAAGTGTGCTAG` the log fluorescence was 0.601 z-score.
With `TAAGATATCAGACTGGATTAGTGCTAG` the log fluorescence was 0.325 z-score.
For `TTAGGACTGTGACTGGGTTAGTGCTAG`, the log fluorescence was -0.452 z-score.
`GATTCTTTCGATGCTAAACGAGTGCTA` gave a log fluorescence of 8.64 z-score.

Set 4
Target: CEBPD, bZIP domain (human)
Technique: DHFR protein complementation
Matrix: yeast
Notes: single substitutions, most at no-binding floor
Reference: wild-type JUN-FOS pair
Reading: higher = stronger binding
Parent: JUN, bZIP domain (human); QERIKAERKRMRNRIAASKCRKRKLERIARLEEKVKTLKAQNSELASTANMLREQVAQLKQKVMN; partner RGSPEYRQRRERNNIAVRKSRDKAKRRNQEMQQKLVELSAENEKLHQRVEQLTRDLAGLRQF
For `L31R`, the binding fitness was -1.45 natural log.
With `T37K` the binding fitness was -1.34 natural log.
The binding fitness of `K36S` is reported as -1.38 natural log.
The binding fitness of `A49T` is reported as -1.5 natural log.
With `S43E` the binding fitness was -1.22 natural log.
`L52Q` has a binding fitness of -1.43 natural log.
`L59W` gave a binding fitness of -1.41 natural log.
`R30M` has a binding fitness of -1.4 natural log.

Some of these lines once more (set 3):
`GACGAACTGAGACTGGAGGCGTGCTAG` has a log fluorescence of -0.368 z-score.
For `GACGATATCAGACTGGACACGTGCTAG`, the log fluorescence was 0.567 z-score.
With `TTGATAATTTTTTTCTAAGTGTGCTAG` the log fluorescence was 0.601 z-score.
